Measured values of several laboratories.
A part holds a random share of what one study measured. Changes are numbered by the printed parent chain.

Series 1 — technique: EMSA with sequencing; molecule type: double-stranded DNA, one strand shown; sample: in vitro; tested at: 10 and 20 nM; baseline: negative control set to 0; reading: higher = stronger binding; measurement: normalised bound fraction
Target: Hepatocyte nuclear factor 3-alpha (Foxa1, Mus musculus, UniProt P35582, residues 1-468, full length assumed)
UniProt P35582, sequence (whole entry, looked up): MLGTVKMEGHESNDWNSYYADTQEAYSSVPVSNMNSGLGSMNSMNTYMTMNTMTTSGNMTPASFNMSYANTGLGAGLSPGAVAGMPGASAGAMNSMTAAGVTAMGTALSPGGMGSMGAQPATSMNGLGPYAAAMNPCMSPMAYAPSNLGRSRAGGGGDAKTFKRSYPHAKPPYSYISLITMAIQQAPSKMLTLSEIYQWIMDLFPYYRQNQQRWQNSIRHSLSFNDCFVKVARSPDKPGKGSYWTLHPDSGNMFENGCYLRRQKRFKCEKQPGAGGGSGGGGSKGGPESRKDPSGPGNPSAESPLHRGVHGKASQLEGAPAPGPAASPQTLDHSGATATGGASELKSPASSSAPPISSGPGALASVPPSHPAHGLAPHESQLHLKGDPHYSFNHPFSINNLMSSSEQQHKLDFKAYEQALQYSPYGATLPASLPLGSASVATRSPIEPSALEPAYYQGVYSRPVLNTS
Notes: whole designed probe, mean of two concentrations, ends assumed
Shared flanks, not repeated: GTGAGCGGTGCCCATTGATGGGGAAC … TTTCACTGGGATCGTGGGGAC
CAATGCCACTTTAAAAAATATAAACAGGCCGAATGCCAACTGAGATAGTGACTACTGCTGTAACAAACCTTGGTAAATAGTGAGCAATACTAAAGTAAATAGCACTTGTGGATAAAAGTTTGACATCAATTCCGTTGGCTACATTTTTCATAAATTATCATCTATAATAAAAGTCATTCTGCTATATTACTTT: 0.425 ratio
ATCTTCCCCCTCTTCCTTGCCCCACCAGCTCACCTTCCCGGGTGGAATCTTTATAGGAAAATAAATAAAGCCGGCATTCGTTAACCCTCTTCTGGCGCAAACTGCTGTTTGCTCTGGATGAATCATGGTCCTTTGGCGACGCCAGGCTCCGGGAGAGCAAAGCACCGTGTCAGGGCCATGATCCGGGGTGGCC: 0.312 ratio
GTGAGAAAGAAAATATAAAAGAGCTGAGTCAAATCTGGAGTCAATAAAGGTTTGTAGTTCTTCAAACAAGAACCCTTGCTCTGAATTCTAAAAGTAATTTACAGACATGCTGAAAAAATATTTCATTTTATGAAAGGTTCTGCACCAAAGCCTTTTACAAAAACAGTCTACAAAACCTACTAAACATCCTGTT: 0.0356 ratio
AATCCAGCTACCTATCTTCAGTTCCTTGGCCTTCAGCTGGCAGTGAAACAGACACATCAGCTTTAAGACTGGCAGCCAAATAGTTAACGATCTGTAAACATACATAGAGAGTATTACGCAAGTCCTGTTCAAACAGACTGGATGAAAGCCCTTCCATAAAGAACCCTTTAGGTGATGATGCTAAAATTATTTT: 0.385 ratio
ACTGCTCCTGCAAAGCCATGCGCTCCAGTGGAATTTACAAGAATGTGAAAGTTCAGCAATACTAAAATTATCTCTCACTTCCTATAGATTAGCTTGTTTACTTTGAGATTTCCTTAAAATTCGACCCCCAAGTTGACTTGGCTAACCTTTCTACCATTTACTCAGCTTGAAAGTTTATGCCATATCTCGAAAC: 0.244 ratio
ATCTTCCCCCTCTTCCTTGCCCCACCAGCTCACCTACGGGGGTTATTTGCACAAAGGAAAATAAATAAAGCCGGCATTCGTTAACGCAGTTCTGGCGCAAACTGCTGTTTGCTCTGCATGAATCATGGTCCTTACGCGAGGCGTGGCTCCGGGAGAGCAAAGCACCGTGTCAGGCGCATGATCCGGGGTGGCC: 0.393 ratio
GTGGAGTTAATGCAGATTGACGCTGAAGTTCATGTGGGGGCACAGACGTCTGATGGTGCCCAAGAAACCCAGGAGACAAAACTGATGCTTCCCTGTGGACACTGCAGCATCCTCTAAAGCCGCTGTAATTAAGGTATGTGACACATGACCAGGAAGCAGACAGATGGACAAAAATGGAATATCTGGAAATAGA: -0.00234 ratio
ATCTTCCCCCTCTTCCTTGCCCCACCAGCTCACCTACGGGGGTTATTTGCAGATAGGAAAATAAATAAAGCCGGCATTCGTTAACGCAGTTCACGCGCATACTGCTGTTTGCTCTGGATCTAACATGGTCCTTTGGCGACGCCAGGCTCCGGGAGAGCAAAGCACCGTGTCAGGGCCATGATCCGGGGTGGCC: 0.354 ratio

Series 2 — technique: RNA Bind-n-Seq; molecule type: RNA; sample: in vitro; tested at: 365 nM; baseline: no-protein control; reading: higher = stronger binding; measurement: RBNS enrichment (R)
Target: RNA binding protein fox-1 homolog 2, RRM domain, GST-SBP tag (RBFOX2, Homo sapiens, UniProt O43251-10, residues 100-194)
Notes: natural RNA segment, single round, ends assumed
Shared flanks, not repeated: GGGAGUUCUACAGUCCGACGAUC … UGGAAUUCUCGGGUGCCAA
Residues (chain): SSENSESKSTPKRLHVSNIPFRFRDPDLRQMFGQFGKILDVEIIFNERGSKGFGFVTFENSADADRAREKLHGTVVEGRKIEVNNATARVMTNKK
CCUCAGGCAGGGAUGGUGCUUGAGGCUGGGUGCAGAGAUAUGCCUGCAUGGCUCUCUUGUAGCCAAAGGUGGGGAGAUUCUGCGUGGGAGAACUUGGUGUCUCACCCUGG: 0.58
UUAGCAACUUAGAGUUGGUGAGUUUAAUCUUCAGUCAUACCAGCUCCAAGAGAUGAGGCCUCAGUCCAGAACCCAUCUUCAUACAAAAGCUUCAGUAGCCUGUAGGCGGC: 0.272
UUUGAAUGCUUUUGUUUCCUAAGAGAUAAUGGCAUGGUUUCAUAUGUUAUACUUUGGACAGACAGAGUUUUAAAAAUGGAAUUAUUUUUUCUUUCAUGCCUCUUGUAAUG: 0.464
GUCUGCCAGGGAGACAAGUACACACCUUGACUCUCAAGUUGGCAGCCCAGCCUGAAGUAGAGCUCUGACAUUAGGAGCUCUGCUUGCAAGUGUGUGAGUAUGUAUGCCUG: 0.491
AGGAAAAAGAAUGAUUGAUGUAUCCUAAGUAUUGUUAUUUGUUGUCUUUUUUUGCUGCCUUGCUUGAGUUGCUUGUGACUGAUCUUUUGAGGCUGUCAUCAUGGCUAGGG: 6.21
CUCUCCUGCCCUCUGCUCUGCCUGGAGUGUCGGAUCCUGUGAGUAGGCUGGGCCUCCCCUGGGCAGGGUUCUCCAAGGGCCCGGUUUCCCGGCCCUUACCUUUCCUGAUG: 0.402
ACUUUGUUUCAGGCUGGUCUGUGCCCCGUGAGCCACAUGGCCUAGGGUGAUGCCAGGUUGUCCCGUCACUGGGGUCCCAUCUGUAAAUUCUUUGCGCCCUUCCCGGCUGC: 0.16
CCCCGGGCACCUCCUGCAACCAUCUCUGGGCUCAGCACCUGAGGCGGGUUUCCUGGGUCCCCUCUCCAGCAAGCCUCCACCAGCAAGCUCGGCCCAGAGCUUCCCUUCCG: 0.38
GUUUCCCAGAAAAUGUGGAGCCAGAGAGAAACAGGCGGACGUGUGUUAGUUACCACGAUGGUGUUUAAAUCAACACCCUAGCACGCUACCUGUCGGCCUGUUGGUGUCUG: 0.263
GGAGAUCAAACAUCAAUCAUCCCUGUCCAUCAGGUCAUUGAUAAGGUCAAGGGUUAUUGCAAUGCUCAUUCAGACAACUUCUAUAAAAAUAUUAUCAUGUCAGACACCUU: 0.441
AUUCUAAAUUUACUUUUCCUCUAGACCACACUUAAUGCCUGCCUUGAAGACAUUACAGAAAUGAAGGUGUGUUCAUGGGUCAAUAACAGCAAAGUAAUUAUGGACCAAUA: 0.648
UACAUUUAUUUCCCCCUGAUGUGGAAAAUCUAAAAGCACAGAAUGAUGGGAACAAGAGUAUGAUGUGCUUGGUAUCUGGCUUUUCCCCAAGCAGUCGAUGUCAAGGUUAC: 2.82

Series 3 — technique: DHFR PCA, deep sequencing; sample: yeast; with: (+)-ABA 1.4 µM; baseline: wild-type fitted maximum; reading: higher = stronger binding; measurement: relative binding score
Target: ABI1, truncated, D143A, DHFR fusion (Arabidopsis thaliana)
Notes: methotrexate growth selection, single substitutions
Starting sequence: PYL1, truncated, DHFR fusion (Arabidopsis thaliana); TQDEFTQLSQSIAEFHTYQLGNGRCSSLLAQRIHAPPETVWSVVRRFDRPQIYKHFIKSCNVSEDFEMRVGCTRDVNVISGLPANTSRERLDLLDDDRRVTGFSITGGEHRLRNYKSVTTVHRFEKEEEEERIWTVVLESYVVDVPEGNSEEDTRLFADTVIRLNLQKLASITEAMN; partner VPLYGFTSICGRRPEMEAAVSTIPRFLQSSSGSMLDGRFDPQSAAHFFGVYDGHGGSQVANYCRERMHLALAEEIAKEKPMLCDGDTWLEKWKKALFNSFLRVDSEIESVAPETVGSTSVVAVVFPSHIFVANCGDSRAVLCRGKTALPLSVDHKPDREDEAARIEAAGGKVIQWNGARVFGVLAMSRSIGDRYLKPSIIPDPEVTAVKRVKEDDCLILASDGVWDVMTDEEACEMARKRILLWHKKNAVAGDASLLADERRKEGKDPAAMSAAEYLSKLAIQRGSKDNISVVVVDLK
L156V: 49.9%
E67R: 37.3%
A170Q: 39.3%
E131V: 52.5%
D65M: 20.5%
L112I: -10.4%
L8E: -6.61%
E4I: 53%
P83W: 2.02%
V137R: -2.89%
N22W: 17.8%
S117F: -9.8%
Y141R: -4.7%
A13M: 29.2%
A158D: -1.03%
R24K: 71.8%
I172T: 15.8%

Series 4 — technique: protein binding microarray; molecule type: double-stranded DNA, one strand shown; sample: in vitro; tested at: not given; baseline: not given; reading: higher = stronger binding; measurement: E-score
Target: Histone acetyltransferase KAT6A, winged helix 2, GST fusion (KAT6A, Homo sapiens, UniProt Q92794, residues 85-181)
Notes: 8-mer, flanks averaged, mean of 2 arrays, mostly near background
Residues (chain): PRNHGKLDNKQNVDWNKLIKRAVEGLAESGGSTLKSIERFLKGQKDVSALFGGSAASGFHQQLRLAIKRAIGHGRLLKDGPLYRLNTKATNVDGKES
CTTCCAAA: 0.0968
GACCGATA: -0.00989
GTCACAAA: 0.104
GTGACGAA: 0.0589
ATGCTTTG: 0.0179
AGTTACGC: -0.12
AGCCACAG: -0.141
ATCTGTAA: -0.244
ACGGACAG: -0.0466
GCATGAGA: -0.000665
CTACAGCA: 0.138
CAGGACCC: 0.0174
CCGGGTTC: 0.22
AATCCTAC: -0.127
ACTAGCAT: -0.0326
CATGGAGC: 0.0181
GAGTCTCC: -0.0202
CCACACCA: 0.0796
ACCGCTAC: -0.0217
CGCCGTGC: 0.194
ACCCGCAC: 0.0923
CATATTCA: 0.117
CGGCGACG: 0.208

Series 5 — target: human cyclin B2; effect on: peptide binding; technique: yeast competitive growth sequencing; molecule type: peptide; organism: Saccharomyces cerevisiae; strain: cyclin B2-Cln2 fusion; tested at: concentration not given; notes: RxL motif peptides; reading: direction not given; measurement: binding enrichment score
PPARRRLRLSVDE: 0.481
PRARKRLELGNLG: 0.825
ARYKRKLLINDFG: 0.81
FVPQRKLEVSTED: -0.373

A few entries again (series 4):
ATCTGTAA: -0.244
ACCGCTAC: -0.0217
GTCACAAA: 0.104
ACGGACAG: -0.0466
CTACAGCA: 0.138
CCACACCA: 0.0796
CGGCGACG: 0.208
